Assay results gathered from unrelated publications.
Each line is one published result; not all experiments were run side by side. Several values in a cell are separate wells, animals, samples, runs or records. ≈ marks a conversion by molar mass, not a printed value.
Organism: Staphylococcus aureus

SMILES | test | system | setting | scale | quantity | result
CO/N=C(\C(=O)N[C@@H]1C(=O)N2C(C(=O)O)=C(CSC(=O)c3ccco3)CS[C@H]12)c1csc(N)n1 |  | CAAS-2019-CAAS-2019-09 clinical blaZ-resistant isolate, 25% plasma |  |  | MBC | 32 µg/mL
CC[C@H](C)[C@H](NC(=O)[C@H](CCCCN)NC(=O)[C@H](CCCCN)NC(=O)[C@H](Cc1ccccc1)NC(=O)[C@@H](NC(=O)[C@@H](NC(=O)[C@H](CCCNC(=N)N)NC(=O)[C@H](Cc1ccccc1)NC(=O)[C@@H](NC(=O)[C@H](CCCCN)NC(=O)[C@H](CCCCN)NC(=O)[C@@H](N)CCSC)[C@@H](C)CC)C(C)C)[C@@H](C)CC)C(=O)N[C@@H](CC(C)C)C(=O)N[C@@H](CCCCN)C(=O)N[C@@H](CCCNC(=N)N)C(=O)N[C@@H](CC(C)C)C(=O)N[C@H](C(=O)N[C@H](C(=O)O)C(C)C)[C@@H](C)CC | broth microdilution | GU-1 MRSA | 5% fetal bovine serum |  | MIC | 8 µg/mL (≈ 3.52 µM)
C=CC[C@@H]1c2ccc(OC)c(OC)c2CN2CCc3cc4c(cc3[C@H]12)OCO4 |  | P2rx7 A312V/A312V mice, skin wound infection | dose not given, day 3 | baseline: day 0 | relative wound size | 0.92 and 0.65 and 0.63 and 1.16 and 1.22 and 1.33
CCCCCCCCCC(=O)N[C@@H](Cc1c[nH]c2ccccc12)C(=O)N[C@H](CC(N)=O)C(=O)N[C@@H](CC(=O)O)C(=O)N[C@@H]1C(=O)NCC(=O)N[C@@H](CCCN)C(=O)N[C@@H](CC(=O)O)C(=O)N[C@H](C)C(=O)N[C@@H](CC(=O)O)C(=O)NCC(=O)N[C@H](CO)C(=O)N[C@@H]([C@H](C)CC(=O)O)C(=O)N[C@@H](CC(=O)c2ccccc2N)C(=O)O[C@@H]1C | broth microdilution | BR-VRSA strain 880, Mueller-Hinton broth, Mg2+ 10 mg/L | 16 h, added: Ca2+ 10 mM |  | MIC | 0.125 µg/mL (≈ 0.0771 µM)
CC[C@H](C)[C@H](NC(=O)[C@H](C)NC(=O)[C@H](CCCCN)NC(=O)[C@H](CC(C)C)NC(=O)[C@H](C)NC(=O)[C@@H](NC(=O)[C@H](Cc1c[nH]cn1)NC(=O)[C@H](CC(C)C)NC(=O)[C@@H](NC(=O)[C@@H](NC(=O)[C@H](CCCCN)NC(=O)[C@H](C)NC(=O)[C@H](C)NC(=O)[C@H](CO)NC(=O)[C@H](CCCCN)NC(=O)[C@H](Cc1ccccc1)NC(=O)[C@@H](NC(=O)[C@H](CCCCN)NC(=O)[C@H](CC(C)C)NC(=O)[C@H](Cc1ccccc1)NC(=O)[C@H](CO)NC(=O)[C@H](CCCCN)NC(=O)[C@H](Cc1c[nH]c2ccccc12)NC(=O)[C@H](CCCCN)NC(C)=O)[C@@H](C)O)[C@@H](C)O)C(C)C)[C@@H](C)O)C(=O)N[C@@H](CO)C(=O)N[C@@H](CO)C(N)=O |  | MRSA | 130 strains |  | MBC90 | 32 µg/mL (≈ 10.9 µM)
CN[C@H](CC(C)C)C(=O)N[C@H]1C(=O)N[C@@H](CC(N)=O)C(=O)N[C@H]2C(=O)N[C@H]3C(=O)N[C@H](C(=O)N[C@H](C(=O)O)c4cc(O)cc(O)c4-c4cc3ccc4O)[C@H](O)c3ccc(c(Cl)c3)Oc3cc2cc(c3O[C@@H]2O[C@H](CO)[C@@H](O)[C@H](O)[C@H]2O[C@H]2C[C@](C)(N)[C@H](O)[C@H](C)O2)Oc2ccc(cc2Cl)[C@H]1O |  | CAAS-2019-CAAS-2019-14 clinical blaZ-resistant isolate, PBS |  |  | MBC | 2 µg/mL (≈ 1.38 µM)
CC(C)C[C@H](NC(=O)CNC(=O)CNC(=O)CNC(=O)[C@H](Cc1ccc(O)cc1)NC(=O)[C@H](CC(C)C)NC(=O)[C@@H](NC(=O)CNC(=O)[C@H](Cc1ccc(O)cc1)NC(=O)[C@H](CCCCN)NC(=O)[C@H](CC(N)=O)NC(=O)[C@@H](NC(=O)[C@H](CCCCN)NC(=O)[C@H](Cc1c[nH]c2ccccc12)NC(=O)CN)[C@@H](C)O)[C@@H](C)O)C(=O)N[C@@H](CCCCN)C(=O)N[C@@H](CCCCN)C(=O)N[C@@H](CC(C)C)C(=O)N[C@@H](CC(C)C)C(=O)N[C@@H](CC(C)C)C(=O)N[C@@H](CC(C)C)C(=O)N[C@@H](CC(C)C)C(=O)N[C@@H](CCCCN)C(=O)N[C@@H](CCCCN)C(=O)N[C@@H](CC(C)C)C(=O)NCC(=O)O |  | ATCC 25923 | added: 8 µM ZnCl2 |  | MIC | 16 µg/mL (≈ 5.59 µM)
OB(O)c1csc2ccccc12 |  | USA300 wild type | 1 µM | baseline: untreated | growth relative to untreated | 97% and 85.7% and 89.2% and 85.3% and 85.5%
Cc1c2c(nn1C)CSCc1cc(n(C)n1)CSc1cc(c3ccccc3c1)OCCCc1c(C(=O)O)n(C)c3c-2c(Cl)ccc13 | label-free proteomics, refers to: pyrB | SA113 | concentration not given | baseline: untreated | log2 fold change | -4.66

Excerpt of the above:
SMILES | test | system | setting | scale | quantity | result
CO/N=C(\C(=O)N[C@@H]1C(=O)N2C(C(=O)O)=C(CSC(=O)c3ccco3)CS[C@H]12)c1csc(N)n1 |  | CAAS-2019-CAAS-2019-09 clinical blaZ-resistant isolate, 25% plasma |  |  | MBC | 32 µg/mL
